Measured values pooled from the literature.
Compare with care: the assays were run in different laboratories. ± gives the spread as reported.
Technique: steady-state kinetics
B1: BaiA1 (Clostridium scindens, UniProt P07914); chain MKLVQDKITIITGGTRGIGFAAAKLFIENGAKVSIFGETQEEVDTALAQLKELYPEEEVLGFAPDLTSRDAVMAAVGTVAQKYGRLDVMINNAGITMNSVFSRVSEEDFKNIMDINVNGVFNGAWSAYQCMKDAKQGVIINTASVTGIYGSLSGIGYPTSKAGVIGLTHGLGREIIRKNIRVVGVAPGVVDTDMTKGLPPEILEDYLKTLPMKRMLKPEEIANVYLFLASDLASGITATTISVDGAYRP
B2: ASRGL1 (Homo sapiens, UniProt Q7L266); chain 1 MNPIVVVHGGGAGPISKDRKERVHQGMVRAATVGYGILREGGSAVDAVEGAVVALEDDPEFNAGCGSVLNTNGEVEMDASIMDGKDLSAGAVSAVQCIANPIKLARLVMEKTPHCFLTDQGAAQFAAAMGVPEIPGEKLVTERNKKRLEKEKHEKGAQKTDCQKNLG; chain 2 TVGAVALDCKGNVAYATSTGGIVNKMVGRVGDSPCLGAGGYADNDIGAVSTTGHGESILKVNLARLTLFHIEQGKTVEEAADLSLGYMKSRVKGLGGLIVVSKTGDWVAKWTSTSMPWAAAKDGKLHFGIDPDDTTITDLP
B3: enzyme (Thermobifida fusca, UniProt Q47RK4); chain MTDVYILDAVRTPFGRYGGALSGIRPDDLAAHVLRALAERSPGLDPAAVDDVFFGDANGAGEDNRNVARMAALLAGWPTSVPGVTLNRLCGSGMESVIAANRAIAVGDASLAVAGGVESMSRAPWVLPKPAQGFPTGHETLYSTTLGWRMVNPAMPEQWTVSLGESTEQVAATYGISRAEQDAFALRSHERAARAWAEGVFDAEITQIPGAELERDESIRETSAEKLAALKPAFRPDGTITAGNASPLNDGAAALLIGDAAAAERVGREPLARIVSRGVAAVDPDVFGIGPVQAAEIALRRAGIGWDDLSVVELNEAFAAQSLACLKLWPDLDPEIVNPNGGAIAIGHPLGASGARIVGTLAHELHRRGGGWGLAAICIGVGQGLAVVLHR
B4: enzyme (Brachypodium distachyon, UniProt I1HY48); chain MGSIASEERTVTGWAARDADGHLSPYTYTLRKTGPEDVLVKVLYCGICHTDIHQAKNHLGASKYPMVPGHEVVGEVVEVGGEVSKYSAGDVVGVGVIVGCCRECRPCKASVEQYCNKRIWSYNDVYTDGRPTQGGFSSAMVVDQKFVVRIPAGLAPEQAAPLLCAGVTVYSPLKHFGLMSPGLRGGILGLGGVGHMGVKVAKSMGHHVTVISSSGKKRAEAMDDLGADAYLVSSDADQMAAAADSLDYVIDTVPVKHPLEPYLSLLKMDGKLVLMGVIGEPLSFVSPMVMLGRKSITGSFIGSMEETEEVLKFCVEKGLTSQIEVVKMDYLNEALERLERNDVRYRFVVDVAGSKIEDAA
B5: hdhb (Clostridium sardiniense, UniProt G9FRD6); chain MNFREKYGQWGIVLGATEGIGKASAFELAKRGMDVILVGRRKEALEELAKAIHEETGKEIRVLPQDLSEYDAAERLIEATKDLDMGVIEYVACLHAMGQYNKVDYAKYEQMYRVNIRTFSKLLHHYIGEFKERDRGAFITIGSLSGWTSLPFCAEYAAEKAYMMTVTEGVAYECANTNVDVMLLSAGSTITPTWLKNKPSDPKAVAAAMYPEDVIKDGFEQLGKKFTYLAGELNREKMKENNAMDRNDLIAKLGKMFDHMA
B6: enzyme (UniProt A0A2T5C445); chain MKSKQLNTDLFKVQAKQQIRLKNYDPASCNGFANRKEAEHQLKQDIKELADLQYQLYAENKRSVLIVFQAMDAAGKDGSIRHVFSGLNPQGCKVYSFKSPSANELDHDYLWRHYNKLPPRGEIGIFNRSHYENVLITRVHPEFLLNENLPDVHATNDITTEFWERRYRQIRDFEQTLTENGTTIIKFFLHLSKDEQKKRFMERIRKPAKNWKFSSADIRERQYWDDYQHAYEQAMRATSTEEAPWYIIPADNKWFTHVAIGNIIVETLQQMNIQMPEISSEEKDALKKAKKKLQNE
B7: enzyme A178R/D177A/P184R (Levilactobacillus brevis, UniProt Q03Q85); chain MKVTVVGCTHAGTFAIKQILAEHPDAEVTVYERNDVISFLSCGIALYLGGKVADPQGLFYSSPEELQKLGANVQMNHNVLAIDPDQKTVTVEDLTNHAQTTESYDKLVMTSGSWPIVPKIPGIDSDRVKLCKNWAHAQALIEDAKEAKRITVIGAGYIGAELAEAYSTTGHDVTLIARMARVMRKYFDADFTDVIEQDYRDHGVQLALGETVESFTDSATGLTIKTDKNSYETDLAILCIGFRPNTDLLKGKVDMAPNGAIITDDYMRSSNPDIFAAGDSAAVHYNPTHQNAYIPLATNAVRQGILVGKNLVKPTVKYMGTQSSSGLALYDRTIVSTGLTLAAAKQQGLNAEQVIVEDNYRPEFMPSTEPVLMSLVFDPDTHRILGGALMSKYDVSQSANTLSVCIQNENTIDDLAMVDMLFQPNFDRPFNYLNILAQAAQAKVAQSVNA
Sequence of UniProt P45370 (whole entry, looked up): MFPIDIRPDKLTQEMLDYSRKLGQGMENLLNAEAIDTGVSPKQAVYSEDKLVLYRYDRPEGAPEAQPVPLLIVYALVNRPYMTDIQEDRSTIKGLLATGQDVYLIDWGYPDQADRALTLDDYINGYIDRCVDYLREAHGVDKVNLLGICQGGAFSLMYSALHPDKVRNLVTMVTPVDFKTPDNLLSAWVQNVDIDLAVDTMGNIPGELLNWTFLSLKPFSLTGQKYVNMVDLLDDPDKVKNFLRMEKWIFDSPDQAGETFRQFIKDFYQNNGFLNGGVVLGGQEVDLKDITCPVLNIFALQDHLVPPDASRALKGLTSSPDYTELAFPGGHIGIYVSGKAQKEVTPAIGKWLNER
Sequence of UniProt Q8KN33 (whole entry, looked up): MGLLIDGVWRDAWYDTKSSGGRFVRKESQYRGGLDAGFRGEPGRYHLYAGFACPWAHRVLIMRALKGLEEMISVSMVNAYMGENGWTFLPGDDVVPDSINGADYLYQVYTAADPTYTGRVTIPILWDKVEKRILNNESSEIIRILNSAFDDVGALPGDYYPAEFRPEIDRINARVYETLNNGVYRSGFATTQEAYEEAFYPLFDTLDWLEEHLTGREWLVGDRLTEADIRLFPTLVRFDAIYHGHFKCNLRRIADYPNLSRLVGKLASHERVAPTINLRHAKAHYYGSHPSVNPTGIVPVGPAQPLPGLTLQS

B1 (BaiA1) — kcat/Km (C[C@H](CCC(=O)SCCNC(=O)CCNC(=O)[C@H](O)C(C)(C)COP(=O)(O)OP(=O)(O)OC[C@H]1O[C@@H](n2cnc3c(N)ncnc32)[C@H](O)[C@@H]1OP(=O)(O)O)[C@H]1CC[C@H]2[C@@H]3[C@H](O)C[C@@H]4C[C@H](O)CC[C@]4(C)[C@H]3C[C@H](O)[C@]12C; pH 8.7, 37 °C, together with: NAD+): 11600 M⁻¹ s⁻¹
pcpF (Sphingobium chlorophenolicum, UniProt Q8KN33) — kcat/Km (N[C@@H](CS)C(=O)O; pH 6.5, together with: GS-TriCH, ascorbic acid 2 mM): 187 M⁻¹ s⁻¹
alanine aminopeptidase (Neisseria meningitidis, UniProt Q9JYV4) — kcat/Km (NC(=O)Cc1cc(=O)oc2cc(NC(=O)[C@@H](N)CCC(=O)OCc3ccccc3)ccc12; pH 7.5, 37 °C): 111000 ± 5000 M⁻¹ s⁻¹
B2 (ASRGL1) — kcat/Km (NC(=O)C[C@H](N)C(=O)O; pH 7.4, 37 °C, NaCl 100 mM): 2000 ± 300 M⁻¹ s⁻¹
B3 (enzyme) — kcat/Km (CC(C)(COP(=O)(O)OP(=O)(O)OC[C@H]1O[C@@H](n2cnc3c(N)ncnc32)[C@H](O)[C@@H]1OP(=O)(O)O)[C@@H](O)C(=O)NCCC(=O)NCCSC(=O)CCCC(=O)O; pH 7.4, 37 °C): 1.5 M⁻¹ s⁻¹
B4 (enzyme) — kcat/Km (NC(=O)c1ccc[n+]([C@@H]2O[C@H](COP(=O)(O)OP(=O)(O)OC[C@H]3O[C@@H](n4cnc5c(N)ncnc54)[C@H](OP(=O)(O)O)[C@@H]3O)[C@@H](O)[C@H]2O)c1; pH 8.8, 23 °C, cofactor varied): 1.37e+07 M⁻¹ s⁻¹
protein (Allochromatium vinosum, UniProt P45370) — kcat/Km (C#CC[C@@H](O)CC(=O)SCCNC(=O)CCNC(=O)[C@H](O)C(C)(C)COP(=O)(O)OP(=O)(O)OC[C@H]1O[C@@H](n2cnc3c(N)ncnc32)[C@H](O)[C@@H]1OP(=O)(O)O; pH 7.8, 30 °C): 59800 M⁻¹ s⁻¹
enzyme (Clostridium autoethanogenum, UniProt A0ABM5NRF0) — kcat/Km (NC(=O)C1=CN([C@@H]2O[C@H](COP(=O)(O)OP(=O)(O)OC[C@H]3O[C@@H](n4cnc5c(N)ncnc54)[C@H](OP(=O)(O)O)[C@@H]3O)[C@@H](O)[C@H]2O)C=CC1; pH 7.5, 25 °C, cofactor varied): 3.9e+07 M⁻¹ s⁻¹
B5 (hdhb) — kcat/Km (NC(=O)c1ccc[n+]([C@@H]2O[C@H](COP(=O)(O)OP(=O)(O)OC[C@H]3O[C@@H](n4cnc5c(N)ncnc54)[C@H](OP(=O)(O)O)[C@@H]3O)[C@@H](O)[C@H]2O)c1; pH 8, 25 °C, cofactor varied): 72600 M⁻¹ s⁻¹
B6 (enzyme) — kcat/Km (Nc1nc2c(ncn2[C@@H]2O[C@H](COP(=O)(O)O)[C@@H](O)[C@H]2O)c(=O)[nH]1; pH 8, 30 °C): 14000 M⁻¹ s⁻¹
B7 (enzyme A178R/D177A/P184R) — kcat/Km (NC(=O)C1=CN([C@@H]2O[C@H](COP(=O)(O)OP(=O)(O)OC[C@H]3O[C@@H](n4cnc5c(N)ncnc54)[C@H](O)[C@@H]3O)[C@@H](O)[C@H]2O)C=CC1; pH 7.5, 37 °C, per site): 52000 ± 21000 M⁻¹ s⁻¹

Excerpt of the above:
B6 (enzyme) — kcat/Km (Nc1nc2c(ncn2[C@@H]2O[C@H](COP(=O)(O)O)[C@@H](O)[C@H]2O)c(=O)[nH]1; pH 8, 30 °C): 14000 M⁻¹ s⁻¹
